{"data": "Results gathered from unrelated publications", "note": "Each line is one published result; not all experiments were run side by side. Several values in a cell are separate wells, animals, samples, runs or records. ± marks the error that the study gave."}
{"Structure (SMILES)": "[Cl-].[Cl-].[Ru+2].c1ccc(-c2cccc(-c3ccccn3)n2)nc1.c1ccc2nc(-c3ccc4ccccc4n3)ccc2c1", "test": "C18 HPLC retention time", "test system": "water", "setting": "100 µM", "scale": "reference: standards of known log P", "measurement": "relative log P", "result": 1.21}
{"Structure (SMILES)": "C=Cc1c(C)c2cc3nc(c(CC(=O)OCCOCCOCCOC)c4[nH]c(cc5nc(cc1[nH]2)C(C)=C5CC)c(C)c4C(=O)O)[C@@H](CCC(=O)OCCOCCOCCOC)[C@@H]3C", "test": "LC-MS", "test system": "methanol-water 9:1", "setting": "5 min, pH 2.0", "measurement": "compound loss", "result": "23%"}
{"Structure (SMILES)": "COC(=O)[C@@]1(C(C)C)C=C(C(=O)Nc2cccc(C(=O)Nc3ccc(Nc4nccc(-c5cccnc5)n4)c(C)c3)c2)C(=O)CC1", "test system": "rat, plasma", "setting": "1 µM, 20 min", "measurement": "compound remaining", "result": "96.8% and 99.3%"}
{"Structure (SMILES)": "O[C@@H]1[C@@H](O)[C@H](n2cc(COc3ccc(-c4nncnn4)cc3)nn2)O[C@H](C[18F])[C@H]1O", "test system": "BALB/c nude mouse, LS174T xenograft", "setting": "intravenous, dose not given, 1 h, together with: CC49-TCO pretargeting", "measurement": "tumour to control tumour ratio", "result": 3}
{"Structure (SMILES)": "COc1cccc(OC)c1-c1cc(C(=O)NC2(C(=O)O)C3CC4CC(C3)CC2C4)nn1-c1ccc(C(=O)N(C)CCOCCN(C)C(=O)[C@H](CCCCNC(=O)[C@H](CC(C)C)NC(=O)C2OC2C(=O)O)NC(=O)CN2CCN(CC(=O)[O-])CCN(CC(=O)[O-])CCN(CC(=O)[O-])CC2)cc1C(C)C.[177Lu+3] (mixture of isomers)", "test system": "mouse, HT-29 xenograft", "setting": "4 h post injection, biodistribution", "scale": "reference: tumour over heart uptake", "measurement": "tumour-to-heart ratio", "result": 5.93}
{"Structure (SMILES)": "Cc1nn(-c2nc3c(F)cc(F)cc3s2)c(O)c1C(c1ccc(C(F)(F)F)cc1)c1c(C)nn(-c2nc3c(F)cc(F)cc3s2)c1O", "test system": "ICR mouse, plasma", "setting": "oral, 50 mg/kg", "measurement": "Tlag", "result": "0 h"}
{"Structure (SMILES)": "[123I]c1ccc2nc(-c3ccc(-n4ccnn4)nc3)cn2c1", "test system": "male Wistar rat, lung", "setting": "intravenous, 4 MBq, 3 h", "measurement": "tracer uptake", "result": "0.065 %ID/g"}
{"Structure (SMILES)": "CC[C@H](C)[C@@H]1NC(=O)[C@H](Cc2ccc(O)cc2)NC(=O)CCCSC[C@@H](C(=O)N(CC(=O)N[C@@H](CC(C)C)C(=O)NCC(N)=O)Cc2ccc(F)cc2)NC(=O)[C@H](CC(N)=O)NC(=O)[C@H](CCC(N)=O)NC1=O", "test system": "human", "setting": "intranasal, 50 µg single dose", "measurement": "serious adverse events", "result": "0%"}
{"Structure (SMILES)": "CCCC[C@H](NC(=O)CNC(=O)CNC(=O)[C@H](CCCCNC(=O)[C@H](CCN)NC(=O)C(C)c1ccc(CC(C)C)cc1)NC(=O)CN1CCN(CC(=O)O)CCN(CC(=O)O)CCN(CC(=O)O)CC1)C(=O)N[C@H]1CC(=O)NCCCC[C@@H](C(N)=O)NC(=O)[C@H](Cc2c[nH]c3ccccc23)NC(=O)[C@H](CCCNC(=N)N)NC(=O)[C@@H](Cc2ccccc2)NC(=O)[C@H](Cc2c[nH]cn2)NC1=O (stereo partly shown) [lutetium-177 labelled]", "test system": "C57 mice, tumour", "setting": "2 h", "scale": "reference: liver", "measurement": "tumour-to-tissue ratio", "result": 0.49}
{"Structure (SMILES)": "CN1CCC[C@]1(C)/C=C/S(=O)(=O)NC(=O)Nc1c2c(cc3c1CC(O)C3)CCC2 (stereo partly shown)", "test system": "human, plasma", "setting": "oral, 100 mg twice daily of parent drug, day 14, metabolite of dosed drug", "measurement": "Tmax at first steady-state dose", "result": "4 h"}
{"Structure (SMILES)": "O=C(NS(=O)(=O)c1cccs1)c1cc2ccccc2n1Cc1ccc(Br)c2ccccc12", "test system": "Sprague-Dawley rat, male, ankle joint tissue", "setting": "oral, 2 mg/kg, 6 h", "measurement": "tissue concentration", "result": "7580 ng/g"}
{"Structure (SMILES)": "O=C(CN1CCN(CC(=O)NCc2ncccc2O)CCN(CC(=O)NCc2ncccc2O)CCN(CC(=O)NCc2ncccc2O)CC1)NCc1ncccc1O.[177Lu+3]", "test system": "Sprague-Dawley rat, kidney", "setting": "intravenous (tail vein), dose not given, 2 h", "measurement": "tissue uptake", "result": "0.927 ± 0.285 % injected dose/g"}
{"Structure (SMILES)": "CC(C)(c1cc(Br)c(O)c(Br)c1)c1cc(Br)c(O)c(Br)c1", "test system": "cow whole milk", "setting": "2000 nM", "scale": "reference: milk fat over skim milk", "measurement": "milk fat partition ratio", "result": 21.5}
{"Structure (SMILES)": "Cc1[nH]nc2c1N=C(c1ccccc1Cl)c1cnc(N3CCOCC3)cc1N2", "test system": "monkey, plasma", "measurement": "fraction unbound", "result": 0.0332}
{"Structure (SMILES)": "CCCSc1ccc(S(N)(=O)=O)cc1", "setting": "sulfonamide group", "measurement": "pKa", "result": 10.2}
{"Structure (SMILES)": "CC(C)OCCOCc1ccc(OCC(O)CN(N=O)C(C)C)cc1 (stereo not shown)", "test": "duplex sequencing, refers to: mutation frequency", "test system": "NMRI mouse, liver", "setting": "oral, 284.5 mg/kg/day, 4 weeks", "scale": "reference: vehicle", "measurement": "fold change", "result": 1.74}
{"Structure (SMILES)": "CC(C)(F)CC(NC(c1ccc(-c2ccc(S(C)(=O)=O)cc2)cc1)C(F)(F)F)C(=O)NCC#CBr (stereo not shown)", "test system": "PBS", "setting": "100 µM, 23 h, pH 8, 37 °C, together with: cysteine 10 mM", "measurement": "cysteine adduct formation", "result": "66%"}
{"Structure (SMILES)": "Cc1cc(C)n(CCN(CCN)CCCCCCNC(=O)[C@@H](N)Cc2c[nH]cn2)n1.[99Tc+].[C-]#[O+].[C-]#[O+].[C-]#[O+]", "test system": "BALB/c nude mice A549 xenograft", "setting": "intravenous, 4 h", "scale": "reference: tumour over lung", "measurement": "tumour-to-tissue ratio", "result": 1.3}
{"Structure (SMILES)": "O=C(Nc1cnccc1-c1ccc([18F])cc1)c1ccnc(NC(=O)C2CC2)c1", "test system": "mice, transgenic, GSK-3β, early-stage, heart", "setting": "intravenous, dose not given, 120 min", "measurement": "SUV", "result": 0.2}
{"Structure (SMILES)": "CCCCCCCOc1ccc(CC[C@](N)(CO)COP(=O)(O)O)cc1C(F)(F)F", "test system": "healthy human males, plasma", "setting": "oral, 0.5 mg, day 1, median", "measurement": "Tmax", "result": "12 h"}
{"Structure (SMILES)": "CNc1nc(N)nc2c1ncn2C1OC(CO)C(O)C1(C)F (stereo not shown)", "test system": "healthy adult humans, plasma", "setting": "oral, 550 mg once daily, day 6, fasted, given alone", "measurement": "Cmax, geometric mean", "result": "922 ng/mL"}
{"Structure (SMILES)": "CC(=O)N([O-])CCCCCNC(=O)CCC(=O)N([O-])CCCCCNC(=O)CCC(=O)N([O-])CCCCCN.[89Zr+4]", "test": "radio-TLC", "test system": "aqueous buffer", "setting": "7 d, pH 5, 37 °C, 89Zr-labelled complex, together with: DTPA 1000-fold excess", "measurement": "intact complex", "result": "59.4 ± 1.4%"}
{"Structure (SMILES)": "C=C(NC(=O)c1csc(-c2nc3c(cc2O)-c2nc(cs2)C(=O)NC(C(C)O)C(=O)NC(=C(C)OC)c2nc(cs2)C(=O)NC2c4nc(cs4)C(=O)NC(COC(=O)c4c5c6c(cccc6n4O)COC(=O)C(OC4CC(C)(O)C(N(C)C)C(C)O4)C2OC5)c2nc-3cs2)n1)C(N)=O (stereo not shown)", "test system": "cynomolgus monkey, both sexes, plasma", "setting": "intravenous infusion, 1.5 mg/kg twice daily, 0 to 30 h", "measurement": "Tmax", "result": "1.15 h"}
{"Structure (SMILES)": "CC(C)[C@H](NC(=O)[C@H](Cc1c[nH]c2ccccc12)NC(=O)[C@H](CCCNC(=N)N)NC(=O)[C@H](CCCNC(=N)N)NC(=O)[C@@H](NC(=O)[C@@H](NC(=O)[C@H](CCCNC(=N)N)NC(=O)[C@@H](NC(=O)[C@@H](NC(=O)[C@H](CCCNC(=N)N)NC(=O)[C@H](CCCNC(=N)N)NC(=O)[C@@H](NC(=O)[C@H](Cc1c[nH]c2ccccc12)NC(=O)[C@H](CCCNC(=N)N)NC(=O)[C@H](CCCNC(=N)N)NC(=O)[C@@H](NC(=O)[C@H](CCCNC(=N)N)NC(=O)[C@H](CCCNC(=N)N)NC(=O)[C@@H](NC(=O)[C@H](Cc1c[nH]c2ccccc12)NC(=O)[C@H](CCCNC(=N)N)NC(=O)[C@@H](N)CCCNC(=N)N)C(C)C)C(C)C)C(C)C)C(C)C)C(C)C)C(C)C)C(C)C)C(=O)N[C@@H](CCCNC(=N)N)C(=O)N[C@@H](CCCNC(=N)N)C(=O)O", "test system": "CD1 mouse, urine", "setting": "intravenous, 15 mg/kg, 0 to 6 h, [14C]-labelled compound", "measurement": "urine volume", "result": "64 µL/day/g body weight"}
{"Structure (SMILES)": "C=CC(=O)Nc1cc(Nc2nccc(-c3c[nH]c4ccccc34)n2)c(OC)cc1N(C)CCN(C)C", "test": "storage stability", "test system": "human dried blood spot", "setting": "10 d, -80 °C, HQC level", "measurement": "recovery", "result": "106%"}
{"Structure (SMILES)": "CC(=O)N[C@@H](Cc1ccccc1)C(=O)N[C@@H](CC(C)C)C(=O)NCC(=O)N[C@H](C(=O)N[C@@H](CC(C)C)C(=O)N[C@@H](C)C(=O)N[C@@H](CC(C)C)C(=O)N[C@@H](CC(C)C)C(=O)NCC(=O)N[C@@H](Cc1ccc(O)cc1)C(=O)N[C@@H](CC(C)C)C(=O)N[C@@H](C)C(=O)N[C@H](C(=O)N[C@@H](CCCNC(=N)N)C(=O)N1CCC[C@H]1C(=O)N[C@@H](Cc1ccccc1)C(=O)N[C@@H](CC(C)C)C(=O)N1CCC[C@H]1C(=O)N[C@@H](CCCCN)C(=O)N[C@@H](CCCCN)C(=O)N[C@@H](CCCCN)C(=O)N[C@@H](CCC(N)=O)C(=O)N[C@@H](CCC(N)=O)C(=O)N[C@@H](CCCCN)C(N)=O)C(C)C)C(C)C", "test": "LC-MS", "test system": "DOPC/DOPG vesicles with trypsin", "setting": "10 µM, 12 h, pH 7.2", "measurement": "cleaved to intact ratio", "result": "0.3 ± 0.08"}
{"Structure (SMILES)": "COCC1CN(C2CCN(c3cc(OC)c(Nc4ncc(Br)c(Nc5ccc6c(c5P(C)(C)=O)OCCO6)n4)cc3C)CC2)C1", "test": "first-in-human trial", "test system": "human", "setting": "oral, 30 mg once daily", "scale": "treatment-related", "measurement": "serious adverse events", "result": "0%"}
{"Structure (SMILES)": "C=CC(=O)Nc1cc(Nc2nccc(-c3cn(C)c4ccccc34)n2)c(OC)cc1N(C)CCNC", "test": "storage stability", "test system": "human plasma", "setting": "270 ng/mL, 24 h, -80 °C, HQC level", "measurement": "remaining amount", "result": "99.2%"}
{"note": "Some of these lines once more:"}
{"Structure (SMILES)": "CC[C@H](C)[C@@H]1NC(=O)[C@H](Cc2ccc(O)cc2)NC(=O)CCCSC[C@@H](C(=O)N(CC(=O)N[C@@H](CC(C)C)C(=O)NCC(N)=O)Cc2ccc(F)cc2)NC(=O)[C@H](CC(N)=O)NC(=O)[C@H](CCC(N)=O)NC1=O", "test system": "human", "setting": "intranasal, 50 µg single dose", "measurement": "serious adverse events", "result": "0%"}
{"Structure (SMILES)": "C=CC(=O)Nc1cc(Nc2nccc(-c3cn(C)c4ccccc34)n2)c(OC)cc1N(C)CCNC", "test": "storage stability", "test system": "human plasma", "setting": "270 ng/mL, 24 h, -80 °C, HQC level", "measurement": "remaining amount", "result": "99.2%"}
{"Structure (SMILES)": "[Cl-].[Cl-].[Ru+2].c1ccc(-c2cccc(-c3ccccn3)n2)nc1.c1ccc2nc(-c3ccc4ccccc4n3)ccc2c1", "test": "C18 HPLC retention time", "test system": "water", "setting": "100 µM", "scale": "reference: standards of known log P", "measurement": "relative log P", "result": 1.21}
{"Structure (SMILES)": "COc1cccc(OC)c1-c1cc(C(=O)NC2(C(=O)O)C3CC4CC(C3)CC2C4)nn1-c1ccc(C(=O)N(C)CCOCCN(C)C(=O)[C@H](CCCCNC(=O)[C@H](CC(C)C)NC(=O)C2OC2C(=O)O)NC(=O)CN2CCN(CC(=O)[O-])CCN(CC(=O)[O-])CCN(CC(=O)[O-])CC2)cc1C(C)C.[177Lu+3] (mixture of isomers)", "test system": "mouse, HT-29 xenograft", "setting": "4 h post injection, biodistribution", "scale": "reference: tumour over heart uptake", "measurement": "tumour-to-heart ratio", "result": 5.93}
